{"data": "Assay results from different studies", "tmk": "Thymidylate kinase (tmk, Mycobacterium tuberculosis, UniProt P9WKE1)", "relA residues 53-446": "relA, residues 53-446 (Mycobacterium tuberculosis, UniProt P9WHG9)", "note": "Protocols differ between the studies behind these lines. Numbers after ± are the reported error."}
{"Structure (SMILES)": "CCCCCc1cc(O)c2c(c1)OC(C)(C)C1=C2C(OC)C(C)(O)CC1 (stereo not shown)", "target or system": "rat intestinal maltase", "assay": "inhibitor", "test system": "rat intestinal acetone powder", "conditions": "10 min, 37 °C, together with: maltose 10 mM", "quantity": "IC50", "value": "700 ± 50 µM"}
{"Structure (SMILES)": "CC(C)CC(C(=O)N1CC2(CC1C#N)C(=O)Nc1ccccc12)N(C)C(=O)c1cc2c(F)cc(F)c(F)c2[nH]1 (stereo not shown)", "target or system": "Pro-cathepsin H (Homo sapiens, UniProt P09668)", "assay": "enzyme activity, inhibitor", "quantity": "IC50", "value": "> 100 µM"}
{"Structure (SMILES)": "CCC[C@H](C(=O)c1ccccc1)N1CCCC1", "target or system": "SLC6A3 (Homo sapiens, UniProt Q01959)", "assay": "dopamine uptake, inhibitor", "test system": "HEK293 transiently transfected", "conditions": "DAT S149A/S429G mutant, together with: [3H]dopamine", "quantity": "Ki", "value": "0.581 µM"}
{"Structure (SMILES)": "COc1cc2c(cc1-n1ccnc1)C[C@H]1[C@H]3CCCC[C@@]23CCN1C", "target or system": "KCNH2 (Homo sapiens, UniProt Q12809)", "assay": "radioligand binding, inhibitor", "quantity": "IC50", "value": "23.2 µM"}
{"Structure (SMILES)": "CN(C)[C@H]1C[C@@]23CC[C@@]4(O2)C(=CC[C@]2(C)[C@@H](c5ccc6ccncc6c5)CC[C@H]24)C=C3[C@@H](O)[C@@H]1O", "target or system": "CDK2 (Homo sapiens, UniProt P24941)", "assay": "ATP probe labelling, inhibitor, KiNativ profiling", "conditions": "0.1 µM", "quantity": "inhibition", "value": "-2.4%"}
{"Structure (SMILES)": "O=C1NC2(CC2)COc2ncc(F)cc2[C@H]2COCCN2c2ccn3ncc1c3n2", "test system": "Sprague-Dawley rat, male, heart", "conditions": "oral, 2.5 mg/kg/day, 4 weeks dosing, end of recovery", "quantity": "organ-to-brain weight ratio", "value": "74.4 ± 5.98%"}
{"Structure (SMILES)": "Cc1cn(C2CC(O)C(COP(=O)(O)O)O2)c(=O)[nH]c1=O (stereo not shown)", "target or system": "tmk", "assay": "enzyme activity, inhibitor, absorbance", "quantity": "IC50", "value": "0.0712 µM"}
{"Structure (SMILES)": "CC(C)(C)c1ccc(-c2cncc(-c3nc4ccc5cc(C(=O)O)cc(O)c5c4[nH]3)c2)cc1", "target or system": "relA residues 53-446", "assay": "enzyme activity, inhibitor, fluorescence polarization", "quantity": "IC50", "value": "7.94 µM"}
{"Structure (SMILES)": "CCOC(=O)C1=C(C)NC(=NN=C2C(=O)Nc3ccccc32)NC1c1ccc(F)cc1 (stereo not shown)", "target or system": "tmk", "assay": "enzyme activity, inhibitor, absorbance", "quantity": "IC50", "value": "0.524 µM"}
{"Structure (SMILES)": "CC(C)[C@H]1NC(=O)C[C@H]2/C=C/CCSSC[C@@H](NC1=O)C(=O)N[C@H](Cc1cccc3ccccc13)C(=O)NCC(=O)O2", "target or system": "EGFR (Homo sapiens, UniProt P00533, L858R/T790M)", "assay": "enzyme activity, inhibitor", "conditions": "10 µM", "quantity": "inhibition", "value": "-0.6%"}
{"Structure (SMILES)": "COc1ccccc1-c1n[nH]c2nc(NC3CCN(C(=O)Cc4ccc(F)cc4F)CC3)ncc12", "assay": "bead binding, competition bead pull-down, item: LINJ.25.1850", "test system": "Leishmania donovani axenic amastigote extract", "conditions": "10 µM", "how to read": "relative to: vehicle", "quantity": "relative abundance", "value": 0.9}
{"Structure (SMILES)": "CC[C@H](C)[C@@H]1NC(=O)[C@@H](NC(=O)CNC(=O)[C@@H](N)CCCCN)CSSC[C@@H]2NC(=O)[C@@H]3CSSC[C@H](NC(=O)[C@H](CCC(N)=O)NC(=O)[C@H](CC(C)C)NC(=O)[C@@H]4CCCN4C(=O)[C@H](CCCNC(=N)N)NC2=O)C(=O)N[C@@H](CCCCN)C(=O)NCC(=O)N2CCC[C@H]2C(=O)N[C@@H](CO)C(=O)N2CCC[C@H]2C(=O)N[C@@H](CCCCN)C(=O)N[C@@H](CCC(N)=O)C(=O)N[C@@H](CCCCN)C(=O)N[C@@H](CCCCN)C(=O)N[C@H](C(=O)N[C@H](C(=O)N[C@@H](CCCCN)C(=O)N[C@H](C(=O)O)C(C)C)[C@@H](C)O)CSSC[C@H](NC(=O)[C@H](Cc2c[nH]c4ccccc24)NC(=O)[C@H](CCCCN)NC(=O)CNC(=O)[C@H](CCC(=O)O)NC(=O)[C@H](CCCCN)NC1=O)C(=O)N1CCC[C@H]1C(=O)N[C@@H](CCCCN)C(=O)N[C@@H]([C@@H](C)O)C(=O)N[C@@H](C)C(=O)N1CCC[C@H]1C(=O)N3", "target or system": "KCNA3 (Homo sapiens, UniProt P22001)", "assay": "ion current, inhibitor, patch clamp", "conditions": "pH 7.4", "quantity": "IC50", "value": "0.381 µM"}
{"Structure (SMILES)": "Cc1ccc(C(=O)OC(C)C)c(N2CCN(Cc3ccccc3OC(F)F)CC2)n1", "target or system": "relA residues 53-446", "assay": "enzyme activity, inhibitor, fluorescence polarization", "quantity": "IC50", "value": "10 µM"}
{"Structure (SMILES)": "CCCc1cc(O)c2c(c1)OC(C)(C)c1ccc(C)cc1-2", "target or system": "rat intestinal maltase", "assay": "inhibitor", "test system": "rat intestinal acetone powder", "conditions": "10 min, 37 °C, together with: maltose 10 mM", "quantity": "IC50", "value": "380 ± 10 µM"}
{"Structure (SMILES)": "CS(C)(=O)=Nc1ccc(-c2ccc(-c3nc4cc(O[C@@H]5CO[C@H]6[C@@H]5OC[C@H]6O)[nH]c4cc3F)cc2)cc1", "target or system": "EGFR (Homo sapiens, UniProt P00533, T790M)", "assay": "enzyme activity, inhibitor", "conditions": "10 µM", "quantity": "inhibition", "value": "-3%"}
{"Structure (SMILES)": "CCCCCc1cc(O)c2c(c1)OC(C)(C)C1=C2[C@@H](O)[C@@](C)(O)CC1", "target or system": "rat intestinal maltase", "assay": "inhibitor", "test system": "rat intestinal acetone powder", "conditions": "10 min, 37 °C, together with: maltose 10 mM", "quantity": "IC50", "value": "310 ± 40 µM"}
{"Structure (SMILES)": "Fc1cccc(CN2CCN(c3ccccc3)CC2)c1OCC1CC1", "target or system": "relA residues 53-446", "assay": "enzyme activity, inhibitor, fluorescence polarization", "quantity": "IC50", "value": "15.8 µM"}
{"Structure (SMILES)": "CCCCCc1cc(OC)c2c(c1)OC(C)(C)c1cc(O)c(C)cc1-2", "target or system": "rat intestinal maltase", "assay": "inhibitor", "test system": "rat intestinal acetone powder", "conditions": "10 min, 37 °C, together with: maltose 10 mM", "quantity": "IC50", "value": "360 ± 10 µM"}
{"Structure (SMILES)": "CCC1=NN2C(=N)C(=Cc3ccc(Sc4ccc(C)cc4)o3)C(=O)N=C2S1", "target or system": "relA residues 53-446", "assay": "enzyme activity, inhibitor, fluorescence polarization", "quantity": "IC50", "value": "63.1 µM"}
{"note": "Repeated from above:"}
{"Structure (SMILES)": "O=C1NC2(CC2)COc2ncc(F)cc2[C@H]2COCCN2c2ccn3ncc1c3n2", "test system": "Sprague-Dawley rat, male, heart", "conditions": "oral, 2.5 mg/kg/day, 4 weeks dosing, end of recovery", "quantity": "organ-to-brain weight ratio", "value": "74.4 ± 5.98%"}
{"Structure (SMILES)": "Cc1cn(C2CC(O)C(COP(=O)(O)O)O2)c(=O)[nH]c1=O (stereo not shown)", "target or system": "tmk", "assay": "enzyme activity, inhibitor, absorbance", "quantity": "IC50", "value": "0.0712 µM"}
{"Structure (SMILES)": "CC(C)(C)c1ccc(-c2cncc(-c3nc4ccc5cc(C(=O)O)cc(O)c5c4[nH]3)c2)cc1", "target or system": "relA residues 53-446", "assay": "enzyme activity, inhibitor, fluorescence polarization", "quantity": "IC50", "value": "7.94 µM"}
